Experimental data collected from several papers.
Numbered parts are unrelated; each lists some results of a single study.
UniProt O75747, sequence (whole entry, looked up): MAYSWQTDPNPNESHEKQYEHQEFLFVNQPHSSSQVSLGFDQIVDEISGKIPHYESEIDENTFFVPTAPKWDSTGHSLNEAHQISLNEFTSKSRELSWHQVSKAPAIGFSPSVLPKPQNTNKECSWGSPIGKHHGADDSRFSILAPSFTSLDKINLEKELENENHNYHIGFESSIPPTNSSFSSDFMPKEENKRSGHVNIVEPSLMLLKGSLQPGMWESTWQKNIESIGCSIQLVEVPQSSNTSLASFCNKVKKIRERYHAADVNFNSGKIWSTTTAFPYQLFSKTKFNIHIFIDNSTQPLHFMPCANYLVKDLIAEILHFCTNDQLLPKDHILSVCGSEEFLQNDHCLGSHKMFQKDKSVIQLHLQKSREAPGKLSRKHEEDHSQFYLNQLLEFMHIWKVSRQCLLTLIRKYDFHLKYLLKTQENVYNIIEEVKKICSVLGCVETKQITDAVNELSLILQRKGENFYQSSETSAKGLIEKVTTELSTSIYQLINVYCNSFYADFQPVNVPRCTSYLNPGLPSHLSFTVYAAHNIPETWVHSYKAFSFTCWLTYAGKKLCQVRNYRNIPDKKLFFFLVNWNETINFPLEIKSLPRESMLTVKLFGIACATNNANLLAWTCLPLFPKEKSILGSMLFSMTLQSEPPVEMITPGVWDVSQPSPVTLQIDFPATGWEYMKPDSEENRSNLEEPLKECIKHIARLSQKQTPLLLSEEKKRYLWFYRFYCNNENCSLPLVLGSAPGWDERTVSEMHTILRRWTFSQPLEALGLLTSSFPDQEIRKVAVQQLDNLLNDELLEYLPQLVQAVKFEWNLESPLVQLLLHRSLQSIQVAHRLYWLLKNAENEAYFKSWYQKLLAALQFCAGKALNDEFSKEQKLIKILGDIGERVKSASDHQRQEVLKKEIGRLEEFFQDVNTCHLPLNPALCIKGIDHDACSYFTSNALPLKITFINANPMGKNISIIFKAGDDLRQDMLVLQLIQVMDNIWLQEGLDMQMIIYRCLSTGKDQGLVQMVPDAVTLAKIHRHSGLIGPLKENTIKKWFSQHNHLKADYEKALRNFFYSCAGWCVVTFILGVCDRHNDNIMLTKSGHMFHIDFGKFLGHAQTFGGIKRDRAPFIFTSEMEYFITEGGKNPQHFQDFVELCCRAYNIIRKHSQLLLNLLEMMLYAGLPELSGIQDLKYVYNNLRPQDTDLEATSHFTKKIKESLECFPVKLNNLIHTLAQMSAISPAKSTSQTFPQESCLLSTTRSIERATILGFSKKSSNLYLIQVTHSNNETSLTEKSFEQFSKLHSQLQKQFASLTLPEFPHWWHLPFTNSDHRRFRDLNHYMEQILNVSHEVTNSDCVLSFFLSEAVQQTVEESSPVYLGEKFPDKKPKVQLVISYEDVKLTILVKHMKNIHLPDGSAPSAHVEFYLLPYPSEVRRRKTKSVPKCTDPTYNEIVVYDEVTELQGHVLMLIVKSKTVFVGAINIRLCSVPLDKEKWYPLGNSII
UniProt Q9Y6M4, sequence (whole entry, looked up): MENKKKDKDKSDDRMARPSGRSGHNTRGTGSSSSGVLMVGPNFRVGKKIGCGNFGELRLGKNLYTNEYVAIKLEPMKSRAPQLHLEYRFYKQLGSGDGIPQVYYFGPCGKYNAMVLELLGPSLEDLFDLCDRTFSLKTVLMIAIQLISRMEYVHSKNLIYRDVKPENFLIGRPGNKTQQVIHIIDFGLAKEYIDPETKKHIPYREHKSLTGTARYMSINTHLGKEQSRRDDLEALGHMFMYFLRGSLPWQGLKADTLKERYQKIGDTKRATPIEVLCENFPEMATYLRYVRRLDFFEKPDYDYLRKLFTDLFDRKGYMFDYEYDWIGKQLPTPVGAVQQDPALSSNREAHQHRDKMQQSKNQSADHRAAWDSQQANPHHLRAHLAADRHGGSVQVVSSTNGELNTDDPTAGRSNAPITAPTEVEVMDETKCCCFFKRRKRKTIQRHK
UniProt Q9UM73, sequence (whole entry, unmodified, looked up): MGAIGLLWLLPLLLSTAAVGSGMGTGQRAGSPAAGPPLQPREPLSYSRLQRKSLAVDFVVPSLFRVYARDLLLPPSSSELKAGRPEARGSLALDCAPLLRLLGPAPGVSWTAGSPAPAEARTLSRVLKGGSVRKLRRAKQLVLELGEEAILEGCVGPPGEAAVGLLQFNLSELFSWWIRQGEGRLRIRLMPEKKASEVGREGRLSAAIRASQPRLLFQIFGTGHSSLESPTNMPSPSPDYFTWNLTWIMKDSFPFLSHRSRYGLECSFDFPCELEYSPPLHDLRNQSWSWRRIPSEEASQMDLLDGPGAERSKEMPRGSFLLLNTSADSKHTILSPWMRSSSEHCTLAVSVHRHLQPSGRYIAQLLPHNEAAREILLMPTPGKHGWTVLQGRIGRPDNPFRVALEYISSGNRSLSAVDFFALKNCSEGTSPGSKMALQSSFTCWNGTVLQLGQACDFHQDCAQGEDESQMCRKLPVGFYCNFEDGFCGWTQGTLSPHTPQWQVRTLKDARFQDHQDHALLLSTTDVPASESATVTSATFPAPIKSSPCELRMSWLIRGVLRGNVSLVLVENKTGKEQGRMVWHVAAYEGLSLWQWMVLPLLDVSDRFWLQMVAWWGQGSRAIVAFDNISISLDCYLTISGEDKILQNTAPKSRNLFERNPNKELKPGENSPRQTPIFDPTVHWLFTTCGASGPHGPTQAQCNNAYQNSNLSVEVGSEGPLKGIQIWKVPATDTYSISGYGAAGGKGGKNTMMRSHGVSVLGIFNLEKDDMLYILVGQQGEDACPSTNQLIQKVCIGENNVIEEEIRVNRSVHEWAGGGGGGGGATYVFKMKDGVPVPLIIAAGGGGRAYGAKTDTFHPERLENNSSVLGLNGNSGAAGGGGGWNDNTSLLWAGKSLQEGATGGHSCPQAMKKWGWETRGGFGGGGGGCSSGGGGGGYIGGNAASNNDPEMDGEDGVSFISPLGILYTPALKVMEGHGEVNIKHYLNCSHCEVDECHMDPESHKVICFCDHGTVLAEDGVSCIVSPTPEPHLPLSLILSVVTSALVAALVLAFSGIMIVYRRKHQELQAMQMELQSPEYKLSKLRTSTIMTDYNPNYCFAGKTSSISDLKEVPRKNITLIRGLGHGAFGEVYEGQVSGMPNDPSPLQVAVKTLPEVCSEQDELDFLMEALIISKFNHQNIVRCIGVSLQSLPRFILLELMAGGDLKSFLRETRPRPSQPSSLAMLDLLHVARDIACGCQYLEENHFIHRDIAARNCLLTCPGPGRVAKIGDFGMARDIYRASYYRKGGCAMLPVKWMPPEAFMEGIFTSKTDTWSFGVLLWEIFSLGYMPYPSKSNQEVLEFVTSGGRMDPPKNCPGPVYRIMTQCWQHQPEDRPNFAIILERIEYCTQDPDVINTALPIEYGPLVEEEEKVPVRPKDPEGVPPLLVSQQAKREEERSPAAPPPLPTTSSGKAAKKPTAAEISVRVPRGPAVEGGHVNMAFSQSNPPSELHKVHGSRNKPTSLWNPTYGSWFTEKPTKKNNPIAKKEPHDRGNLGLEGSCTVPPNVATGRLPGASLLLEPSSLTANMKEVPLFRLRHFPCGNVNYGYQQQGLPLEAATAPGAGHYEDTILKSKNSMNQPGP
UniProt Q8IVW4, sequence (whole entry, looked up): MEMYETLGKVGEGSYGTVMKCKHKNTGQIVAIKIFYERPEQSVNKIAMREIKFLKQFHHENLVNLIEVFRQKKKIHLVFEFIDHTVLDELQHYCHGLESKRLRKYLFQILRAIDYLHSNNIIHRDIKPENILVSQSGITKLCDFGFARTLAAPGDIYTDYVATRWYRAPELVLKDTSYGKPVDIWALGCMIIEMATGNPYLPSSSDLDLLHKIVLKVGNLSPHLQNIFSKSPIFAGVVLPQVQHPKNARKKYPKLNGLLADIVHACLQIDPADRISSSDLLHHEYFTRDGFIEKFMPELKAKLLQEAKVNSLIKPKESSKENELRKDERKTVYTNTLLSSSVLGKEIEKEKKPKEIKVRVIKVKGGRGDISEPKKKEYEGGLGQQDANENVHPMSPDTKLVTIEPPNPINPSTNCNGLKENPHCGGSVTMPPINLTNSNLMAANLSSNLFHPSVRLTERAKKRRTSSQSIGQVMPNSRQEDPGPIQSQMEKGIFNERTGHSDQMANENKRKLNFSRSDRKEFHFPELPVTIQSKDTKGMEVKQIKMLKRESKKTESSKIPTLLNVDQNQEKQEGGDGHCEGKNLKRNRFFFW
UniProt P45983, sequence (whole entry, looked up): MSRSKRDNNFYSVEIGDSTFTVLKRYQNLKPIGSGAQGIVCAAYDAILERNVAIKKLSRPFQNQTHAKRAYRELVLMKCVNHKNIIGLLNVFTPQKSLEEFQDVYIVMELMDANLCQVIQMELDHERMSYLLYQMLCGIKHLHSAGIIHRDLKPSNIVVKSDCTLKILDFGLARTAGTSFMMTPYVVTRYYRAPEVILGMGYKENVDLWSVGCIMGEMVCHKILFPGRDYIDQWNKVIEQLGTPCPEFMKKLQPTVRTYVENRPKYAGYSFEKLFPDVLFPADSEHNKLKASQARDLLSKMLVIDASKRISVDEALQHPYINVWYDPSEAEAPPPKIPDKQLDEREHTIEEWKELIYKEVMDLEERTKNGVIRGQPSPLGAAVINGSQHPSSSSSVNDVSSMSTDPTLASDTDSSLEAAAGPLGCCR

Study 1 — read-out: enzyme activity; mode: inhibitor; concentration: 0.5 µM; relative to: control
Target: RAC-gamma serine/threonine-protein kinase (AKT3, Homo sapiens, UniProt Q9Y243)
UniProt Q9Y243, sequence (whole entry, looked up): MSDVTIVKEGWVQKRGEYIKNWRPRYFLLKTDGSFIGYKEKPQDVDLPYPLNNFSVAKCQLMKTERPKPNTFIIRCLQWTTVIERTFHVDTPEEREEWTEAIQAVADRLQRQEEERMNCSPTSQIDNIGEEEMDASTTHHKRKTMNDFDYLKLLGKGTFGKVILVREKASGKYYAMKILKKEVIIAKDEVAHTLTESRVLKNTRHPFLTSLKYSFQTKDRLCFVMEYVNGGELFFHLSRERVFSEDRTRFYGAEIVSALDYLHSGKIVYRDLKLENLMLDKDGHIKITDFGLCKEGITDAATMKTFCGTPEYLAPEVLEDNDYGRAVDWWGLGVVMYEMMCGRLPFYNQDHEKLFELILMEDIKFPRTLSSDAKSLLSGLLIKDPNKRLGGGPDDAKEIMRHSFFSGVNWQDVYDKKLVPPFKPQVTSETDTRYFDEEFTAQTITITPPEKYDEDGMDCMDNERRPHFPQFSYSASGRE
N#Cc1c(NC(=O)c2cccc3ccccc23)sc2c1CCCC2 has a remaining activity of 99.6%.
For Ic1cccc(CSc2nnc(-c3ccncc3)o2)c1, the remaining activity was 90.7%.
With O=C1C(Cl)=C(N2C(=O)CCC2=O)C(=O)c2ccccc21 the remaining activity was 105%.
The remaining activity of O=C(Nc1cccc(Nc2nccc(Nc3cccc(C(F)(F)F)c3)n2)c1)C1CC1 is reported as 108%.
With Cc1nc2cc3nc(-c4cccs4)cnc3cc2n1C the remaining activity was 112%.
The remaining activity of CN(C)C[C@H]1CCn2c(c(C3=C(c4cn(C)c5ccccc45)C(=O)NC3=O)c3ccccc32)C1 is reported as 56.3%.
The remaining activity of O=C(NC(NC(=S)Nc1ccc(F)c([N+](=O)[O-])c1)C(Cl)(Cl)Cl)C(c1ccccc1)c1ccccc1 (stereo not shown) is reported as 106%.
Nc1cccc(-c2cc3c(Oc4cccc(O)c4)ncnc3[nH]2)c1 gave a remaining activity of 96.2%.
CCN(CC)CCNC(=O)c1c(C)[nH]c(/C=C2\C(=O)Nc3ccc(Cl)cc32)c1C has a remaining activity of 84.2%.
O=c1cc(-c2cccc3c2Sc2ccccc2S3)oc(N2CCOCC2)c1 has a remaining activity of 109%.
COc1cc2ncnc(Nc3ccc(O)c(Br)c3)c2cc1OC gave a remaining activity of 101%.

Study 2 — cell line: A-375; concentration: 100 µM; time: 18 h
For COc1cc([C@@H]2c3cc4c(cc3[C@@H](O[C@@H]3O[C@@H]5CO[C@@H](c6cccs6)O[C@H]5[C@H](O)[C@H]3O)[C@H]3COC(=O)[C@H]23)OCO4)cc(OC)c1O, the viability was 18.6%.
For Oc1ccc(/C=C/c2cc(O)cc(O)c2)cc1, the viability was 70.2%.
Cc1cc2nc3c(=O)[nH]c(=O)nc-3n(C[C@H](O)[C@H](O)[C@H](O)CO)c2cc1C has a viability of 92.5%.
COc1cc2c(cc1O)[C@@H](Cc1ccc(O)c(Oc3ccc(C[C@@H]4c5cc(OC)c(OC)cc5CCN4C)cc3)c1)N(C)CC2 gave a viability of 16.6%.
The viability of Cc1cccc(C)c1OCC(C)N (stereo not shown) is reported as 90%.
O=C1CCCC(=O)C1C(=O)c1ccc(C(F)(F)F)cc1[N+](=O)[O-] gave a viability of 102%.
The viability of O=C1OC(CN2CCOCC2)CN1/N=C/c1ccc([N+](=O)[O-])o1 (stereo not shown) is reported as 72.9%.
CN(C)CCN(Cc1ccc(Cl)cc1)c1ccccn1 gave a viability of 48.3%.
With Cn1cc[nH]c1=S the viability was 96.2%.
O=C(c1ccc(F)c(F)c1Nc1ccc(I)cc1F)N1CC(O)([C@@H]2CCCCN2)C1 gave a viability of 8.46%.

Study 3 — host: mouse; matrix: microsomes or S9; concentration: 2 µM; time: 0.5 h
CC(C)COc1cc(=O)n2c(c1C(=O)NCc1ccccc1F)CCCCC2 has a remaining compound of 92.4%.
N=C(N)NC(=O)c1cc2c(-c3cccc(Cl)c3)cccc2s1 gave a remaining compound of 47.2%.
The remaining compound of CCc1ccc(C2=NN(c3ccc(S(N)(=O)=O)cc3)C(c3ccc(O)cc3)C2)cc1 (stereo not shown) is reported as 87%.
For COC[C@]1(C)Oc2ccc(N)cc2[C@H](N(Cc2ncc[nH]2)c2ccc(Cl)cc2)[C@H]1O, the remaining compound was 26.1%.
O=C(Cn1nc2c(cc1=O)CCCCC2)Nc1n[nH]c(C2CCCO2)n1 (stereo not shown) gave a remaining compound of 78.2%.
CC(NS(C)(=O)=O)c1nnc(N2CC3(CCC3)c3ccccc32)n1C (stereo not shown) gave a remaining compound of 55.3%.
CCOC(=O)C1(C(=O)OCC)Cc2ccccc2C(C)(c2ccccc2)C1 (stereo not shown) has a remaining compound of 10.9%.
For CC(=O)NCCc1ccc(S(=O)(=O)N(C)C)cc1, the remaining compound was 66.1%.
With Cc1cc(O)cc(NS(=O)(=O)c2cnn3c2OCC(C)(C)C3)c1 the remaining compound was 87.7%.
Cn1nccc1NC(=O)c1cnc2c(F)cc(F)cc2c1O has a remaining compound of 58.1%.
For CC(C)COc1cc(=O)n2c(c1C(=O)NC1CCN(C)CC1)CCCCC2, the remaining compound was 79%.
With Cc1nc(CCN2CC3(CCNCC3)CCC2=O)sc1Cl the remaining compound was 61.3%.
CCC(c1ccc(F)cc1)S(=O)(=O)c1ncc(CO)n1C (stereo not shown) has a remaining compound of 19.8%.
COC(=O)c1cc(F)c(NCCCN(CCCCN(CCCn2c(=O)[nH]c3cc(F)c(F)cc3c2=O)C(=O)OC(C)(C)C)C(=O)OC(C)(C)C)cc1NC(=O)NCCCN(CCCCN(CCCn1c(=O)[nH]c2cc(F)c(F)cc2c1=O)C(=O)OC(C)(C)C)C(=O)OC(C)(C)C gave a remaining compound of greater than 99.9%.
For Cc1cccc(C(=O)/N=c2\c(C)cccn2C(=O)c2cccc(C)c2)c1, the remaining compound was 88.1%.

Study 4 — SMILES: FC(F)(F)c1ccc2c(c1)nc(-c1cccnc1)n2C1CC1; method: competition with immobilised ligand; concentration: 1 µM
For CDKL2 (Homo sapiens, UniProt Q92772); cell-free assay: remaining binding read 100%.
It gave 100% for remaining binding (WNK1 (Homo sapiens, UniProt Q9H4A3); cell-free assay).
The remaining binding was 83% (PRKCI (Homo sapiens, UniProt P41743); cell-free assay).
PIK3CA (Homo sapiens, UniProt P42336, I800L); cell-free assay — remaining binding: 99%.
FGFR3 (Homo sapiens, UniProt P22607); cell-free assay — remaining binding: 100%.
It gave 100% for remaining binding (MAP3K20 (Homo sapiens, UniProt Q9NYL2); cell-free assay).
It gave 100% for remaining binding (EPHA4 (Homo sapiens, UniProt P54764); cell-free assay).
For IKBKB (Homo sapiens, UniProt O14920); cell-free assay: remaining binding read 100%.
It gave 100% for remaining binding (PDGFRA (Homo sapiens, UniProt P16234); cell-free assay).
MYLK3 (Homo sapiens, UniProt Q32MK0); cell-free assay — remaining binding: 100%.
CDKL3 (Homo sapiens, UniProt Q8IVW4); cell-free assay — remaining binding: 96%.
The remaining binding was 100% (SLK (Homo sapiens, UniProt Q9H2G2); cell-free assay).
MAK (Homo sapiens, UniProt P20794); cell-free assay — remaining binding: 100%.
MAPK8 (Homo sapiens, UniProt P45983); cell-free assay — remaining binding: 93%.
The remaining binding was 100% (FRK (Homo sapiens, UniProt P42685); cell-free assay).
The remaining binding was 100% (RIOK1 (Homo sapiens, UniProt Q9BRS2); cell-free assay).
TLK2 (Homo sapiens, UniProt Q86UE8); cell-free assay — remaining binding: 100%.
The remaining binding was 100% (FLT3 (Homo sapiens, UniProt P36888, F691L/ITD); cell-free assay).
CSNK1G3 (Homo sapiens, UniProt Q9Y6M4); cell-free assay — remaining binding: 100%.
The remaining binding was 100% (GRK1 (Homo sapiens, UniProt Q15835); cell-free assay).
For PIK3C2G (Homo sapiens, UniProt O75747); cell-free assay: remaining binding read 100%.
It gave 100% for remaining binding (CDK18 (Homo sapiens, UniProt Q07002); cell-free assay).
The remaining binding was 100% (ALK (Homo sapiens, UniProt Q9UM73, L1196M); cell-free assay).
For PRKCE (Homo sapiens, UniProt Q02156); cell-free assay: remaining binding read 97%.
For Tyrosine-protein kinase ABL1, non-phosphorylated (ABL1, Homo sapiens, UniProt P00519, F317I); binding: remaining binding read 100%.

For quick reference, copied from above (study 1):
N#Cc1c(NC(=O)c2cccc3ccccc23)sc2c1CCCC2 has a remaining activity of 99.6%.
For Ic1cccc(CSc2nnc(-c3ccncc3)o2)c1, the remaining activity was 90.7%.
With O=C1C(Cl)=C(N2C(=O)CCC2=O)C(=O)c2ccccc21 the remaining activity was 105%.
The remaining activity of O=C(Nc1cccc(Nc2nccc(Nc3cccc(C(F)(F)F)c3)n2)c1)C1CC1 is reported as 108%.
With Cc1nc2cc3nc(-c4cccs4)cnc3cc2n1C the remaining activity was 112%.
The remaining activity of CN(C)C[C@H]1CCn2c(c(C3=C(c4cn(C)c5ccccc45)C(=O)NC3=O)c3ccccc32)C1 is reported as 56.3%.
The remaining activity of O=C(NC(NC(=S)Nc1ccc(F)c([N+](=O)[O-])c1)C(Cl)(Cl)Cl)C(c1ccccc1)c1ccccc1 (stereo not shown) is reported as 106%.
Nc1cccc(-c2cc3c(Oc4cccc(O)c4)ncnc3[nH]2)c1 gave a remaining activity of 96.2%.
CCN(CC)CCNC(=O)c1c(C)[nH]c(/C=C2\C(=O)Nc3ccc(Cl)cc32)c1C has a remaining activity of 84.2%.
